Published values gathered from unrelated publications.
Each line is one published result; not all experiments were run side by side. Several values in a cell are separate wells, animals, samples, runs or records. Numbers after ± are the reported error. ≈ marks a conversion by molar mass, not a printed value.

CC[C@H](C)[C@H](NC(=O)CNC(=O)[C@H](CO)NC(=O)[C@H](CC(C)C)NC(=O)[C@@H](N)Cc1ccccc1)C(=O)N[C@H](C(=O)NCC(=O)N[C@@H](CCSC)C(=O)N[C@@H](CC(C)C)C(=O)NCC(=O)N[C@@H](CCCCN)C(=O)N[C@@H](CC(C)C)C(=O)N[C@@H](Cc1ccccc1)C(N)=O)C(C)C
IC50 (Leishmania amazonensis; intracellular amastigote growth, Giemsa staining; infected macrophages; 24 h): 6.8 ± 2.82 µM

CC(=O)[O-].F[P-](F)(F)(F)(F)F.[Co+2].c1ccc(CN2CCCNCCN(Cc3ccccc3)CCCNCC2)cc1
IC50 (Leishmania donovani; parasite growth, resazurin; 72 h, amastigote): > 15 µM

O=S(=O)(CCC(F)(F)F)N[C@H]1CC[C@H](Nc2ncc3c(-c4ccccn4)n[nH]c3n2)CC1
fold change EC50 (Leishmania donovani; promastigotes; baseline: wild type): 1

CCn1c(-c2ccc(OC)cc2)c(-c2ccc(OC)cc2)n(CC)c1=[Se+][Au-][P+](CC)(CC)CC.[Cl-]
FIC index (Acinetobacter baumannii; bacterial growth, checkerboard microdilution; carbapenem-resistant; added: imipenem): 0.5

COc1cc(-c2ccc3oc(-c4ccsc4)c(C#CC4(O)CCCCC4)c3c2)cc(OC)c1OC
remaining activity (hepatitis C virus; viral entry, HCV pseudoparticle entry; genotype 1a; 10 µM; baseline: DMSO): 80.3%

COc1ccc(S(=O)(=O)NCc2c[nH]nc2-c2cccs2)cc1
log10 minimum inoculum for resistance (Plasmodium falciparum; Dd2-B2; 3216 nM, 60 d, 3× EC90): 8 and 8.01

CC[C@H](C)[C@H](NC(=O)[C@H](Cc1c[nH]c2ccccc12)NC(=O)[C@H](CCCNC(=N)N)NC(=O)[C@H](CCC(N)=O)NC(=O)[C@@H](NC(=O)[C@H](Cc1c[nH]c2ccccc12)NC(=O)[C@H](CCCNC(=N)N)NC(=O)[C@H](CCCNC(=N)N)NC(=O)[C@H](C)NC(=O)[C@H](C)NC(=O)[C@H](C)NC(=O)[C@@H](NC(=O)[C@H](CCCCN)NC(=O)[C@@H]1CCCN1C(=O)[C@H](CCCNC(=N)N)NC(=O)[C@H](Cc1c[nH]c2ccccc12)NC(=O)[C@H](CCCNC(=N)N)NC(=O)[C@H](CCCNC(=N)N)NC(=O)[C@@H](NC(=O)[C@H](Cc1c[nH]c2ccccc12)NC(=O)[C@H](CCCNC(=N)N)NC(=O)[C@H](CCC(N)=O)NC(=O)[C@@H](NC(=O)[C@H](Cc1c[nH]c2ccccc12)NC(=O)[C@H](CCCNC(=N)N)NC(=O)[C@@H](N)CCCNC(=N)N)C(C)C)[C@@H](C)CC)C(C)C)C(C)C)C(=O)N[C@@H](CCCNC(=N)N)C(=O)N[C@@H](CCCNC(=N)N)C(=O)N[C@@H](Cc1c[nH]c2ccccc12)C(=O)N[C@@H](CCCNC(=N)N)C(=O)N1CCC[C@H]1C(=O)N[C@@H](CCCCN)C(=O)N[C@H](C(N)=O)C(C)C
inhibition (Aspergillus fumigatus; DTO 368-D5 and 368-D6; concentration not given, 25 °C): inhibited

[O-][N+]1=C(c2ccccc2)C2=NCCN2c2ccccc21
MIC (Finegoldia magna): 0.125 µg/mL (≈ 0.475 µM)

N#CCC(=O)NNC(=S)Nc1ccc(Cl)c(Cl)c1
combination index (Nakaseomyces glabratus; PDR1 L280F mutant; concentration not given, added: ketoconazole): < 1

CC(=O)[O-].CN1CCN2CCN(CC1)CCN(Cc1ccccc1)CC2.F[P-](F)(F)(F)(F)F.[Cu+2]
IC90 (Leishmania donovani; parasite growth, resazurin; 72 h, amastigote): > 20 µM

C[C@@H](O)[C@H](NC(=O)[C@H](CCC(=O)O)NC(=O)[C@H](Cc1ccccc1)NC(=O)[C@H](Cc1c[nH]c2ccccc12)NC(=O)[C@H](CCCCN)NC(=O)[C@H](CCCCN)NC(=O)[C@H](CCCCN)NC(=S)Nc1ccc2c(c1)C(=O)OC21c2ccc(O)cc2Oc2cc(O)ccc21)C(=O)N[C@@H](Cc1c[nH]c2ccccc12)C(=O)N[C@@H](Cc1ccccc1)C(=O)N[C@H](C(=O)N[C@@H](CCC(=O)O)C(=O)N[C@@H](Cc1c[nH]c2ccccc12)C(=O)N1CCC[C@H]1C(=O)N[C@@H](CCCCN)C(=O)N[C@@H](CCCCN)C(=O)N[C@@H](CCCCN)C(=O)N[C@@H](CCCCN)C(=O)O)[C@@H](C)O
duration of growth inhibition (Fusarium solani; 10-fold MIC, 25 °C): 4 h

[Cl-].[Cl-].[Mn+2].c1ccc(CN2CCNCCN(Cc3ccccc3)CCNCC2)cc1
IC90 (Leishmania donovani; parasite growth, resazurin; 72 h, promastigote): 9.12 µM

Oc1ccc(C(F)(F)F)cc1-c1nc2c(Cl)cc(Cl)cc2[nH]1
colistin MIC (Acinetobacter baumannii; colistin potentiator; AB 2A8, colistin-resistant; 5 µM): 0.125 µg/mL

A few entries again:
CC[C@H](C)[C@H](NC(=O)[C@H](Cc1c[nH]c2ccccc12)NC(=O)[C@H](CCCNC(=N)N)NC(=O)[C@H](CCC(N)=O)NC(=O)[C@@H](NC(=O)[C@H](Cc1c[nH]c2ccccc12)NC(=O)[C@H](CCCNC(=N)N)NC(=O)[C@H](CCCNC(=N)N)NC(=O)[C@H](C)NC(=O)[C@H](C)NC(=O)[C@H](C)NC(=O)[C@@H](NC(=O)[C@H](CCCCN)NC(=O)[C@@H]1CCCN1C(=O)[C@H](CCCNC(=N)N)NC(=O)[C@H](Cc1c[nH]c2ccccc12)NC(=O)[C@H](CCCNC(=N)N)NC(=O)[C@H](CCCNC(=N)N)NC(=O)[C@@H](NC(=O)[C@H](Cc1c[nH]c2ccccc12)NC(=O)[C@H](CCCNC(=N)N)NC(=O)[C@H](CCC(N)=O)NC(=O)[C@@H](NC(=O)[C@H](Cc1c[nH]c2ccccc12)NC(=O)[C@H](CCCNC(=N)N)NC(=O)[C@@H](N)CCCNC(=N)N)C(C)C)[C@@H](C)CC)C(C)C)C(C)C)C(=O)N[C@@H](CCCNC(=N)N)C(=O)N[C@@H](CCCNC(=N)N)C(=O)N[C@@H](Cc1c[nH]c2ccccc12)C(=O)N[C@@H](CCCNC(=N)N)C(=O)N1CCC[C@H]1C(=O)N[C@@H](CCCCN)C(=O)N[C@H](C(N)=O)C(C)C
inhibition (Aspergillus fumigatus; DTO 368-D5 and 368-D6; concentration not given, 25 °C): inhibited
